Measured values of several laboratories.
Parts stem from different laboratories: compare values within a part only.

Study 1
Molecule: PhoQ, residues 284 288 289 292 302 303 DDMDFR
Technique: Sort-seq
Measured: YFP reporter
Sample: E. coli
Setting: PhoQ-PhoP variant library
Added: 10 µM Mg2+
Reference: high Mg2+ state
Direction: higher = stronger signaling
It gave 0.679 for fold induction (PhoP, residues 12 14 15 18 19 HHYTI (Escherichia coli, UniProt P23836)).
It gave 0.763 for fold induction (PhoP, residues 12 14 15 18 19 AYFRS (Escherichia coli, UniProt P23836)).
The fold induction was 0.832 (PhoP, residues 12 14 15 18 19 SFCSL (Escherichia coli, UniProt P23836)).

Study 2
Target: Interferon regulatory factor 5, full length, phosphomimetic (IRF5, Homo sapiens, UniProt Q13568-2, residues 1-514, K96S/S451D/S453D/S456D/S462D)
Technique: protein-binding microarray
Form: double-stranded DNA, one strand shown
Sample: in vitro
Tested at: 250 nM
Setting: 60-bp whole probe
Added: salmon DNA 0.4 mg/ml
Reference: random background probes
Direction: higher = stronger binding
Shared flanks, not repeated: GCCTAGCAC … GTCTTGATTCGCTTGACGCTGCTG
`GACGGACAGGACTTTCGGGACGTGCTA` has a log fluorescence of 4.74 z-score.
`TTAGGTCTCCTACTGGTTTAGTGCTAG` gave a log fluorescence of -0.237 z-score.
For `TTAGGTTTCGGACCGGGTTAGTGCTAG`, the log fluorescence was 4.45 z-score.
The log fluorescence of `GACGGTATCCTTTCCCTGACGTGCTAG` is reported as 0.502 z-score.
`TTAGGACTGGCCACTGGGTTAGTGCTA` gave a log fluorescence of -0.753 z-score.
`TTAGGTCTGCTTTTCCTTTAGTGCTAG` gave a log fluorescence of 0.158 z-score.
For `TCACTTCCCAATAATCTTACTGTGCTA`, the log fluorescence was 0.803 z-score.
The log fluorescence of `GACGGTTTCCTGCTCCTGACGTGCTAG` is reported as 0.29 z-score.
`TTAGGACTAGACTTTCGGTTAGTGCTA` has a log fluorescence of 9.3 z-score.
`GACGATATAAGACTGGAGACGTGCTAG` gave a log fluorescence of 0.296 z-score.
`TCAGAAATCTCTTTCCTACTGTGCTAG` gave a log fluorescence of 0.692 z-score.
For `TTAGATATCGGGACAGGATTAGTGCTA`, the log fluorescence was 1.46 z-score.

Study 3
Target: Histone acetyltransferase KAT6A, both winged helices, GST fusion (KAT6A, Homo sapiens, UniProt Q92794, residues 1-181)
Technique: protein binding microarray
Form: double-stranded DNA, one strand shown
Sample: in vitro
Tested at: not given
Setting: 8-mer, flanks averaged, mean of 2 arrays, mostly near background
Reference: not given
Direction: higher = stronger binding
Target sequence (chain): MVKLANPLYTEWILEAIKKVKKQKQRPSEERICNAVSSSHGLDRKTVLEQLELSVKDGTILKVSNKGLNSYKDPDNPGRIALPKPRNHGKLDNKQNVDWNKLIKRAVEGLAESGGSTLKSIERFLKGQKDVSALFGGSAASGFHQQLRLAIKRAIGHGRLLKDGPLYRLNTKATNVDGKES
With `AGTCGACC` the E-score was 0.0601.
For `CAATTCTA`, the E-score was -0.218.
For `CCTAGGGA`, the E-score was -0.208.
The E-score of `TACGATAA` is reported as 0.00901.
`CCCACCCG` has an E-score of 0.0747.
`AATAGCCC` has an E-score of -0.0718.
For `CTTCACAC`, the E-score was -0.102.
`ATTCGAAA` gave an E-score of -0.0468.
For `CGTCGGAA`, the E-score was 0.273.
`CGCAACAG` has an E-score of 0.0852.
For `AACCGGCC`, the E-score was 0.247.
The E-score of `CGCCCCCA` is reported as 0.00582.
`TATTTAAA` gave an E-score of 0.0204.
`GACGCGCA` has an E-score of 0.308.
With `GAGGCAGA` the E-score was -0.154.
`ACTAGGGC` has an E-score of -0.119.
`ACGAACCT` has an E-score of -0.0661.
`TGTCCCAA` has an E-score of -0.1.
The E-score of `GCGTGGAC` is reported as 0.203.
The E-score of `CCCACAAC` is reported as -0.0143.
`AAATCAAA` gave an E-score of 0.0105.
The E-score of `AAGATATA` is reported as -0.0806.

Study 4
Target: Fragile X messenger ribonucleoprotein 1, C-terminal low-complexity region (Fmr1, Mus musculus, UniProt P35922)
Technique: RNA Bind-n-Seq
Form: RNA
Sample: in vitro
Tested at: 200 nM
Setting: whole 134-nt RNA, ends assumed
Added: 150 mM KCl
Reference: input library
Direction: higher = stronger binding
With `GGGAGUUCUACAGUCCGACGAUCCCUGUGCUACACAUCGUAUGUACCGAAUCGGGGUUUUUUUGGUUUUUUUGGGUUUUUUUGGAAAGUAUUAUGUUACGCCGUUCGGAUCUGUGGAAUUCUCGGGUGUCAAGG` the log2 enrichment was -0.68.
The log2 enrichment of `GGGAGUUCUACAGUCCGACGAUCCCUCAGUGUCAUUUAUGAAAAGAGGGGACCAGAAGCCAAAGACUUAGUAUAUUUUCUUUUCCUCUGUCCCUUCCCCCAUAAGCCUCCAUUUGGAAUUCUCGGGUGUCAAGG` is reported as 0.0111.
With `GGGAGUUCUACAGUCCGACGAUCAAGUCCUGUGCUACACAUCGUAUGUACCGAAUCGGGCCCCGGCCCCGGGCCCCGGGGAAAGUAUUAUGUUACGCCGUUCGGAUCUGCACUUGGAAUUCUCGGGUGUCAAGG` the log2 enrichment was -0.79.
For `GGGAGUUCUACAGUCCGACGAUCUAACUUUAGAGGAGGAUCUGAUGGAUAUGGCAGUGGACGUGGAUUUGGGGAUGGUUAUAAUGGGUAUGGAGGAGGACCUGGAGGUGGCAAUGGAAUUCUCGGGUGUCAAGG`, the log2 enrichment was 0.277.
`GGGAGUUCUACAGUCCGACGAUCCCUGUGCUACACAUCGUAUGUACCGAAUCGGUUUUUUUGGGUUUUUUUGGUUUUUUUGGGGAAAGUAUUAUGUUACGCCGUUCGGAUCUGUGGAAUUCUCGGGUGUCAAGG` gave a log2 enrichment of -0.843.
The log2 enrichment of `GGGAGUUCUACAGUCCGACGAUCGCAGGAAGUAAAAACAAAUGGAAAUGCUUCGGAUAGUGGCAGGGGUGUGGGUUGCUAAGGAAAGGGUGGGAUGGGAGUGGGUAAAGAGUUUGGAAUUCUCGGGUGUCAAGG` is reported as 0.221.
`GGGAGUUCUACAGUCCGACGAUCAAGUCCUGUGCUACACAUCGUAUGUACCGAAUCAAACCCCCAAACCCAAAUUUAAAAAAGUAUUAUGUUACGCCGUUCGGAUCUGCACUUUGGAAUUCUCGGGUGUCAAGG` gave a log2 enrichment of -0.0291.
For `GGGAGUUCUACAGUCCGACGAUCCUCAAGUCCUGUGCUACACAUCGUAUGUACCGAAUCGGUGGUUUUUUUGGAGGAAAGUAUUAUGUUACGCCGUUCGGAUCUGCACUUCCAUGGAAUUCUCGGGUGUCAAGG`, the log2 enrichment was 0.0157.
`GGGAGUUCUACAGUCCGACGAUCUGGGAGGUGGAUUUUGUUUAUUUUUUUAGCUCAUUUCCAGGGGUGGGAAUUUUUUUUUAAUCUGUGUCAUGAAUAAAGUUGUUUUUGAAAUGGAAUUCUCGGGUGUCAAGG` has a log2 enrichment of 0.502.
`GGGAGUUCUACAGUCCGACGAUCUAACUUUAGAGGAGGAUCUGAUGGAUAUCGCAGUGGACGUGGAUUUGGGGAUGGCUAUAAUGGGUAUGGAGGAGGACCUGGAGGUGGCAAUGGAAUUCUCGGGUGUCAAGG` has a log2 enrichment of 0.299.
`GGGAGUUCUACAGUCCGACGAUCUUUUCAAGGGGGCCCCAACUGGGGCCGCCUUGUAGCCUUCUUUGUCUUUGGGGCUGCACUGUGUGCUGAGAGUGUCAACAAGGAGAUGGAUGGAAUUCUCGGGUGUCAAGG` has a log2 enrichment of -1.17.
With `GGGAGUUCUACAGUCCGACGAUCGUCCUGUGCUACACAUCGUAUGUACCGAAUCGGGGCCCCGGGGCCCCGGGGCCCCGGGGAAAGUAUUAUGUUACGCCGUUCGGAUCUGCAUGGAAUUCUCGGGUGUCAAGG` the log2 enrichment was 1.1.
`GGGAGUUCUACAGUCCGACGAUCAGUCCUGUGCUACACAUCGUAUGUACCGAAUCAAAUUUUUAAAUUUUUAAAUUUAAAAAAGUAUUAUGUUACGCCGUUCGGAUCUGCACUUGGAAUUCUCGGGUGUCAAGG` has a log2 enrichment of -1.47.
`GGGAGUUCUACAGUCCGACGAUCUAACUUUAGAGGCGGAUCUGAUGGAUAUGGCAGUGGACGUGGAUUUGGGGAUGGCUAUAAUGGGUAUGGAGGAGGACCUGGAGGUGGCAAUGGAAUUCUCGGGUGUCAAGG` has a log2 enrichment of 0.311.

For quick reference, copied from above (study 3):
With `AGTCGACC` the E-score was 0.0601.
For `CAATTCTA`, the E-score was -0.218.
For `CCTAGGGA`, the E-score was -0.208.
The E-score of `TACGATAA` is reported as 0.00901.
`CCCACCCG` has an E-score of 0.0747.
`AATAGCCC` has an E-score of -0.0718.
